Measured values from different studies.
Each line is one published result; not all experiments were run side by side. Several values in a cell are separate wells, animals, samples, runs or records. ± marks the error that the study gave.
BCHE: Cholinesterase (BCHE, Equus caballus, UniProt P81908)
Mitogen-activated protein kinase 14: Mitogen-activated protein kinase 14 (Rattus norvegicus, UniProt P70618)
CA2: Carbonic anhydrase 2 (CA2, Homo sapiens, UniProt P00918)
CTSL: Procathepsin L (CTSL, Homo sapiens, UniProt P07711)

Compound = CC(C)C[C@H](NC(=O)[C@H](CS)NC(=O)[C@H](C)N)C(=O)N1CCC[C@H]1C(=O)N[C@@H](Cc1ccccc1)C(=O)N[C@@H](Cc1ccc(O)cc1)C(=O)N[C@@H](CO)C(=O)N[C@@H](CCCNC(=N)N)C(=O)N[C@@H](CS)C(N)=O; target or system = Pyruvate kinase PKM (PKM, Homo sapiens, UniProt P14618); assay = enzyme activity, inhibitor, fluorometric; conditions = 2 h, 37 °C, enzyme 500 nM; quantity = IC50; result = 709 µM
Compound = CC(C)N1CCCCC1C(=O)NC(Cc1ccc(-c2ccccc2)cc1)B(O)O (centres unmarked); target or system = 20S proteasome, beta1 subunit (Plasmodium falciparum, UniProt Q8I0U7+Q8I6T3); assay = β1 activity, inhibitor; conditions = added: Ac-nLPnLD-AMC; quantity = IC50; result = > 10 µM
Compound = CCOC(=O)c1ccccc1-c1c2ccc(=O)cc-2oc2cc(OCCCn3nnnc3C(NCc3ccccc3)c3ccc(Cl)cc3)ccc12 (centres unmarked); target or system = ALOX15 (Homo sapiens, UniProt P16050); assay = enzyme activity, inhibitor, absorbance; quantity = IC50; result = 52.1 µM
Compound = O=C(NC1CCN(c2ncnc3[nH]cnc23)CC1)c1cccc(NS(=O)(=O)c2ccc(C(F)(F)F)cc2)c1; target or system = DNMT1 (Homo sapiens, UniProt P26358); assay = enzyme activity, inhibitor; quantity = IC50; result = > 100 µM
Compound = Cc1ccc2c(n1)c(-c1cccc(S(C)(=O)=O)c1)c(C)n2C/C(F)=C/CN; target or system = Myeloperoxidase (MPO, Homo sapiens, UniProt P05164); assay = enzyme activity, inhibitor, fluorescence; quantity = IC50; result = > 30 µM
Compound = O=C(O)C(/C=C/c1c(Cl)cccc1Cl)=N\Nc1nc(-c2ccc([N+](=O)[O-])cc2)cs1; target or system = BCHE; assay = enzyme activity, inhibitor; quantity = IC50; result = 7.56 µM
Compound = CC[C@H](C)[C@H](NC(=O)[C@H](C)NC(=O)[C@@H](N)Cc1ccc(O)cc1)C(=O)N[C@@H](CCCNC(=N)N)C(=O)N[C@@H](C)C(=O)N[C@@H](CCCNC(=N)N)C(=O)N[C@@H](CCCNC(=N)N)C(=O)NCC(=O)N[C@@H](CC(C)C)C(=O)N[C@@H](C)C(=O)N[C@@H](CCCNC(=N)N)C(=O)N[C@@H](CC(C)C)C(=O)N[C@@H](C)C(=O)N[C@H](C(=O)N[C@@H](CO)C(=O)N[C@@H](CC(=O)O)C(=O)O)C(C)C; target or system = Mitogen-activated protein kinase 14; assay = enzyme activity, inhibitor, fluorescence; conditions = pH 7.4; quantity = IC50; result = 64.9 µM
Compound = CN(C)CCCN1C(=O)CSC1c1ccccc1Cl (centres unmarked); target or system = uncharacterized protein (Apis mellifera, UniProt A0A7M6W5G5); assay = enzyme activity, inhibitor, Ellman; conditions = added: 1 mM acetylthiocholine; quantity = IC50; result = 22 µM
Compound = CC(C)C[C@H](NC(=O)[C@H](CCCNC(=N)N)NC(=O)[C@@H]1CCCN1C(=O)[C@H](CCCCN)NC(=O)[C@H](CCCNC(=N)N)NC(=O)[C@H](Cc1c[nH]cn1)NC(=O)[C@H](CCCNC(=N)N)NC(=O)[C@H](Cc1ccccc1)NC(=O)[C@H](CCCCN)NC(=O)[C@H](CCCCN)NC(=O)[C@H](C)NC(=O)[C@@H](N)Cc1ccc(O)cc1)C(=O)N[C@@H](CO)C(=O)N[C@@H](CC(C)C)C(=O)N1CCC[C@H]1C(=O)NCC(=O)O; target or system = Mitogen-activated protein kinase 14; assay = enzyme activity, inhibitor, fluorescence; conditions = pH 7.4; quantity = IC50; result = 4.85 µM
Compound = CC(C)CN(CCCC[C@H](NC(=O)[C@H](CCCN1CCOCC1)NC(=O)[C@@H](NC(=O)[C@H](Cc1ccccc1)NC(=O)c1ccc(C(C)(C)C)cc1)C1CCC1)C(=O)N[C@@H](CO)C(N)=O)C1CC2CCC1C2 (some centres unmarked); target or system = Chromobox protein homolog 7 (Homo sapiens, UniProt O95931); assay = ligand displacement, TR-FRET; quantity = IC50; result = 6.6 µM
Compound = C[C@@H]1COCCN1c1nc(NCc2cccnc2C(F)(F)F)c2cccnc2n1; target or system = human GABAA receptor; quantity = IC50; result = > 100 µM
Compound = CS(C)(=O)=Nc1ccc(-c2ccc(-c3nc4cc(O[C@@H]5CO[C@H]6[C@@H]5OC[C@H]6O)[nH]c4cc3F)cc2)cc1; target or system = DYRK2 (Homo sapiens, UniProt Q92630); assay = enzyme activity, inhibitor; conditions = 10 µM; quantity = inhibition; result = -8%
Compound = O=[N+]([O-])c1ccc(S(=O)(=O)Oc2ccc(/C=N/NS(=O)(=O)c3cc(Cl)ccc3Cl)cc2)cc1; target or system = CA2; assay = enzyme activity, inhibitor, absorbance; quantity = IC50; result = 0.0264 µM
Compound = CC[C@H](C)[C@H](NC(=O)[C@H](CCCCN)NC(=O)[C@H](CC(C)C)NC(=O)[C@H](CCCCN)NC(=O)[C@H](CC(C)C)NC(=O)[C@H](CCCCN)NC(=O)[C@@H]1CCCN1C(=O)[C@H](CCCCN)NC(=O)[C@H](CO)NC(=O)[C@H](CCCNC(=N)N)NC(=O)[C@H](CCCCN)NC(=O)[C@H](CCCNC(=N)N)NC(=O)[C@H](C)NC(=O)[C@@H](N)Cc1ccc(O)cc1)C(=O)N[C@H](C(=O)N[C@@H](CC(N)=O)C(=O)O)[C@@H](C)CC; target or system = Mitogen-activated protein kinase 14; assay = enzyme activity, inhibitor, fluorescence; conditions = pH 7.4; quantity = IC50; result = 0.054 µM
Compound = CNC(=O)C[C@H](Cc1ccccc1)NC(=O)[C@@H](Cc1ccc(Cl)cc1Cl)NC(=O)[C@H](N)Cc1ccccc1C#N; target or system = CTSL; assay = enzyme activity, inhibitor; quantity = IC50; result = > 10 µM
Compound = CSCc1cn(CC(=O)N2CCc3sccc3C2)nn1; target or system = CTSL; assay = enzyme activity, inhibitor, FRET; quantity = IC50; result = > 100 µM
Compound = CCN(C)C(=O)Oc1ccc(/C=C/C(=O)N2CCc3ccccc3C2)cc1OC; target or system = BCHE; assay = enzyme activity, inhibitor, Ellman; quantity = IC50; result = 1.3 µM
Compound = O=C(O)C(/C=C/c1ccc(Cl)cc1)=N\Nc1nc(-c2ccc(Br)cc2)cs1; target or system = BCHE; assay = enzyme activity, inhibitor; quantity = IC50; result = 6.09 µM
Compound = O=C(CCCN1CCC(O)(c2ccc(Cl)cc2)CC1)c1ccc(F)cc1; target or system = ERG11 (Candida albicans, UniProt P10613); assay = enzyme activity, inhibitor, mass spectrometry; quantity = IC50; result = 1.09 µM
Compound = O=C1NC2(CC2)COc2ncc(F)cc2[C@H]2COCCN2c2ccn3ncc1c3n2; system = Sprague-Dawley rat, female, serum; conditions = oral, 2.5 mg/kg/day, end of treatment, 4-week subacute toxicity; quantity = serum triglycerides; result = 0.76 ± 0.84 mmol/L
Compound = COc1ccccc1-c1n[nH]c2nc(NC3CCN(C(=O)Cc4ccc(F)cc4F)CC3)ncc12; assay = bead binding, competition bead pull-down, measured: LINJ.26.2000; system = Leishmania donovani extract; conditions = 10 µM; scale = relative to: vehicle; quantity = relative abundance; result = 0.98
Compound = CC[C@H](C)[C@H](NC(=O)[C@H](CCCCN)NC(=O)[C@H](CC(C)C)NC(=O)CNC(=O)[C@@H]1CCCN1C(=O)[C@H](CC(N)=O)NC(=O)[C@H](CCCNC(=N)N)NC(=O)[C@H](CCCCN)NC(=O)[C@H](CCCCN)NC(=O)CNC(=O)[C@H](CCCCN)NC(=O)[C@H](CO)NC(=O)[C@H](C)NC(=O)[C@@H](N)Cc1ccc(O)cc1)C(=O)N1CCC[C@H]1C(=O)N[C@@H](CCCCN)C(=O)O; target or system = Mitogen-activated protein kinase 14; assay = enzyme activity, inhibitor, fluorescence; conditions = pH 7.4; quantity = IC50; result = 9.85 µM
Compound = O=C(O)CCn1c(=O)oc2cc(Cl)c(Cl)cc21; target or system = TACR1 (Homo sapiens, UniProt P25103); assay = antagonist; conditions = median value; quantity = IC50; result = > 25.1 µM
Compound = O=C(c1cc(Cc2n[nH]c(=O)c3ccccc23)ccc1F)N1CC(CNC2CC2)C1; target or system = PARP2 (Homo sapiens, UniProt Q9UGN5); assay = enzyme activity, inhibitor; quantity = IC50; result = 0.003 µM
Compound = CC(C)Oc1c(NC(=O)c2ccc(NC(=O)[C@H](CC(N)=O)NC(=O)c3ccc(/N=N/c4ccccc4)cc3)cc2)ccc(C(=O)N/N=C/c2ccc(C(=O)O)cc2)c1O; target or system = DNA gyrase (gyrA/gyrB, Escherichia coli, UniProt P0AES4+P0AES6); assay = DNA supercoiling, inhibitor; conditions = 30 min, 37 °C, after 1 h irradiation at 365 nm; quantity = IC50; result = 1 µM
Compound = CC(C)[C@H](NC(=O)[C@@H](N)CCC(=O)O)C(=O)N[C@@H](CC(N)=O)C(=O)N[C@@H](Cc1ccc(O)cc1)C(=O)N[C@@H](CC(=O)O)C(=O)N[C@@H](Cc1ccccc1)C(=O)NCC(=O)NCC(=O)N[C@@H](CCCCN)C(=O)O; target or system = ACE (Homo sapiens, UniProt P12821); assay = enzyme activity, inhibitor; quantity = IC50; result = 151 µM and ~151 µM
Compound = O=C(Cc1ccccc1)N[C@H](C(=O)O)[C@@H]1N=C(C(=O)O)C(CS[C@H](Cc2ccccc2)C(=O)O)CS1 (some centres unmarked); target or system = Metallo-beta-lactamase IMP-28 (Klebsiella oxytoca, UniProt G4WB26); assay = enzyme activity, inhibitor; conditions = added: nitrocefin; quantity = IC50; result = 0.64 ± 0.05 µM
Compound = CC(C)C[C@H](NC(=O)[C@H](CCCNC(=N)N)NC(=O)[C@H](CC(C)C)NC(=O)[C@H](Cc1ccc(O)cc1)NC(=O)[C@H](CCCCN)NC(=O)[C@H](Cc1c[nH]cn1)NC(=O)[C@H](C)NC(=O)[C@H](CCCCN)NC(=O)[C@H](CCCNC(=N)N)NC(=O)[C@@H]1CCCN1C(=O)[C@H](CCCCN)NC(=O)[C@H](CCCNC(=N)N)NC(=O)[C@H](C)NC(=O)[C@@H](N)Cc1ccc(O)cc1)C(=O)N[C@@H](CO)C(=O)N[C@@H](CCCNC(=N)N)C(=O)O; target or system = Mitogen-activated protein kinase 14; assay = enzyme activity, inhibitor, fluorescence; conditions = pH 7.4; quantity = IC50; result = 10.4 µM
Compound = CC(C)NCCN1C(=O)CSC1c1ccc(Cl)cc1Cl (centres unmarked); target or system = uncharacterized protein (Anopheles gambiae, UniProt Q7QFG0); assay = enzyme activity, inhibitor, Ellman; conditions = added: 1 mM acetylthiocholine; quantity = IC50; result = > 200 µM
Compound = CCCCCCCCCCN(O)C(=O)CCCCC[C@@H]1NC(=O)[C@H]2CCCN2C(=O)[C@H](Cc2ccccc2)NC(=O)[C@H](Cc2ccccc2)NC1=O; target or system = HDAC1 (Homo sapiens, UniProt Q13547); assay = enzyme activity, inhibitor, fluorescence; quantity = IC50; result = 0.013 µM
Compound = CCC1c2ccsc2CCN1C(=O)c1nnn(C2CCNCC2)c1C (racemic); target or system = CTSL; assay = enzyme activity, inhibitor, FRET; quantity = IC50; result = > 100 µM
Compound = CC(C)C[C@H](NC(=O)[C@@H](NC(=O)[C@H](CC(C)C)NC(=O)[C@H](CO)NC(=O)[C@@H](NC(=O)[C@H](CC(N)=O)NC(=O)[C@H](CO)NC(=O)CNC(=O)[C@H](CCCNC(=N)N)NC(=O)[C@H](CCCNC(=N)N)NC(=O)[C@H](CCC(=O)O)NC(=O)[C@H](CCC(N)=O)NC(=O)[C@H](CC(C)C)NC(=O)CNC(=O)[C@H](C)NC(=O)[C@@H](N)Cc1ccc(O)cc1)C(C)C)[C@@H](C)O)C(=O)O; target or system = Mitogen-activated protein kinase 14; assay = enzyme activity, inhibitor, fluorescence; conditions = pH 7.4; quantity = IC50; result = 374 µM
Compound = CCN1CCC[C@@H]1CNC(=O)c1cc([N+](=O)[O-])c(N(C)C)cc1OC; target or system = uncharacterized protein (Apis mellifera, UniProt A0A7M6W5G5); assay = enzyme activity, inhibitor, Ellman; conditions = pH 7.4, 30 °C, added: 1 mM acetylthiocholine; quantity = IC50; result = 19 µM
Compound = CC[C@H](C)[C@H](NC(=O)[C@H](CCCNC(=N)N)NC(=O)[C@@H](NC(=O)[C@H](CC(N)=O)NC(=O)[C@@H](NC(=O)[C@H](CC(C)C)NC(=O)[C@H](CCCCN)NC(=O)[C@H](CCCNC(=N)N)NC(=O)[C@H](Cc1ccccc1)NC(=O)[C@H](CCC(=O)O)NC(=O)[C@H](CCC(=O)O)NC(=O)[C@H](CCC(=O)O)NC(=O)[C@H](C)NC(=O)[C@@H](N)Cc1ccc(O)cc1)[C@@H](C)O)C(C)C)C(=O)N[C@@H](CCSC)C(=O)N[C@@H](CCCCN)C(=O)O; target or system = Mitogen-activated protein kinase 14; assay = enzyme activity, inhibitor, fluorescence; conditions = pH 7.4; quantity = IC50; result = > 200 µM
Compound = COC1c2cc(C(C)C)c(O)c(O)c2C23CCCC(C)(C)C2C1OC3=O (centres unmarked); target or system = CA2; assay = enzyme activity, inhibitor; quantity = IC50; result = 0.00481 µM
